# Measured values pooled from the literature.
# Every numbered part comes from another study and shows a few of its results, in no order.

# Block 1 — technique: protein binding microarray; form: double-stranded DNA, one strand shown; matrix: in vitro; concentration: not given; reference: not given; direction: higher = stronger binding
# Target: Histone acetyltransferase KAT6A, both winged helices, GST fusion (KAT6A, Homo sapiens, UniProt Q92794, residues 1-181)
# Notes: 8-mer, flanks averaged, mean of 2 arrays, mostly near background
# Residues (chain): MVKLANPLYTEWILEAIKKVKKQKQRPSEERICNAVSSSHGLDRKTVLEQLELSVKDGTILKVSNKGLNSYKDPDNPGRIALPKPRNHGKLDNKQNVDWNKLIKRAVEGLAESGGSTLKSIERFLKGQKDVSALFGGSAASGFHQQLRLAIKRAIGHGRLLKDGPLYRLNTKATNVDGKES
Sequence,E-score
CGACTTTC,0.116
CAACTTAC,-0.117
CTGACCAG,-0.0549
CCGTGGCC,0.194

# Block 2 — technique: Spec-seq; form: double-stranded DNA, one strand shown; matrix: in vitro; concentration: not given; notes: whole probe, mean of replicates; reference: not given; direction: lower = stronger binding
# Target: POU domain, class 5, transcription factor 1, POU domain (Pou5f1, Mus musculus, UniProt P20263, residues 131-289)
# Sequence of UniProt P20263 (131-289, looked up): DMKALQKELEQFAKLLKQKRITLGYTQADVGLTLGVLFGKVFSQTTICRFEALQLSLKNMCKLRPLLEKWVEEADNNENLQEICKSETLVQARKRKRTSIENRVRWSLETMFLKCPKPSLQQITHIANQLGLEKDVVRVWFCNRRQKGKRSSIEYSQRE
Sequence,relative binding energy [ln ratio]
GAGTCGTCTCGTCAGCACTCGGTAATCCGTAGAGCACTCAGGTC,0.573
GAGTCGTCTCGTCAGCACATTTGGATCCGTAGAGCACTCAGGTC,0.0637
GAGTCGTCTCGTCAGCACATGCCCGACCGTAGAGCACTCAGGTC,0.603
GAGTCGTCTCGTCAGCACATCTGGATCCGTAGAGCACTCAGGTC,0.58

# Block 3 — technique: protein-binding microarray; form: double-stranded DNA, one strand shown; matrix: in vitro; concentration: 250 nM; notes: 60-bp whole probe; together with: salmon DNA 0.4 mg/ml; reference: random background probes; direction: higher = stronger binding
# Target: Interferon regulatory factor 5, full length, phosphomimetic (IRF5, Homo sapiens, UniProt Q13568-2, residues 1-514, K96S/S451D/S453D/S456D/S462D)
Sequence,log fluorescence
GCCTAGCACGACGGACTGCTACTGGTGACGTGCTAGGTCTTGATTCGCTTGACGCTGCTG,-0.346 z-score
GCCTAGCACGACGGACTGGGTCTCGGGTCGTGCTAGGTCTTGATTCGCTTGACGCTGCTG,-0.606 z-score
GCCTAGCACCTGCCTGCTCAGACTGGGGCGTGCTAGGTCTTGATTCGCTTGACGCTGCTG,-0.635 z-score
GCCTAGCACCAGGAATGGCACCAGCAGGGGTGCTAGGTCTTGATTCGCTTGACGCTGCTG,-0.608 z-score

# Mixed results
Substance,target,test,test system,setting,how to read,endpoint,result
"PhoQ, residues 284 288 289 292 302 303 SSTMSV","PhoP, residues 12 14 15 18 19 LHATL (Escherichia coli, UniProt P23836)","Sort-seq, measured: YFP reporter",E. coli,"PhoQ-PhoP variant library, together with: 10 µM Mg2+","reference: high Mg2+ state, higher = stronger signaling",fold induction,17.2
